Assay results pooled from the literature.
A part holds a random share of what one study measured.

Block 1
Target: Histone acetyltransferase KAT6A, winged helix 2, GST fusion (KAT6A, Homo sapiens, UniProt Q92794, residues 85-181)
Technique: protein binding microarray
Form: double-stranded DNA, one strand shown
Medium: in vitro
Concentration: not given
Setting: 8-mer, flanks averaged, mean of 2 arrays, mostly near background
Relative to: not given
Direction: higher = stronger binding
Construct (chain): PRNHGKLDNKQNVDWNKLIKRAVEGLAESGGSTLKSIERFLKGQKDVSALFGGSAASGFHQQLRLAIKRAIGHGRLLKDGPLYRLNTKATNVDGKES
The E-score of `CTGGTGCC` is reported as 0.022.
The E-score of `CCGCCAAG` is reported as 0.0004.
For `CGGAATGC`, the E-score was 0.0637.
With `GCGCAAGC` the E-score was 0.134.
For `AACTCCGG`, the E-score was 0.208.
The E-score of `GGATAAAA` is reported as 0.111.
`CTCATTGA` gave an E-score of -0.108.
`AGTGCGAA` has an E-score of -0.168.
With `CAAGGGCG` the E-score was 0.0923.
With `GCGATTCC` the E-score was 0.0875.
`ACCTCGTC` has an E-score of -0.046.
With `CGTAGACC` the E-score was -0.136.
With `CGCCTAAG` the E-score was 0.0229.
With `CTAGGCCA` the E-score was -0.0778.
`AATATATG` has an E-score of -0.0215.
`ACCAAACT` has an E-score of -0.0848.
`GACCAGAA` gave an E-score of -0.036.
`ATTCACAA` gave an E-score of -0.0155.
`CCGATATC` has an E-score of 0.126.
`ACTCGCTA` gave an E-score of -0.0358.

Block 2
Target: Sal-like protein 4, full length isoform B (SALL4, Homo sapiens, UniProt Q9UJQ4-2, residues 1-616)
Technique: universal PBM
Form: double-stranded DNA, one strand shown
Medium: in vitro
Concentration: not given
Setting: 8-mer, flanks averaged, mean of replicates
Direction: higher = stronger binding
`AACGTTCT` has an E-score of 0.0962.
`CCCCTAAC` gave an E-score of -0.112.
For `GATGACAA`, the E-score was 0.17.
`CGTGCGTC` gave an E-score of -0.118.
`GCCTACCA` gave an E-score of -0.12.
`CGCGTCGA` gave an E-score of -0.189.
For `CTGGTACA`, the E-score was 0.0445.
`GTCCTCAC` has an E-score of -0.169.
For `ATCCAGCA`, the E-score was 0.0575.
`ATCTCATA` gave an E-score of 0.242.
`CGACGGTA` has an E-score of -0.0765.
`CTTTTATC` gave an E-score of 0.126.
For `GCGCTATA`, the E-score was 0.206.
For `TACACCTA`, the E-score was 0.182.
With `AGAAGTAT` the E-score was 0.226.
With `CAATACCG` the E-score was -0.0804.
The E-score of `AAGCCTCG` is reported as -0.207.
The E-score of `GACGGGCA` is reported as -0.163.
For `AGAAGAGC`, the E-score was -0.00351.
The E-score of `ACGATCCA` is reported as -0.0327.
`AGCCGCCG` has an E-score of -0.265.
The E-score of `ACCCGCGG` is reported as -0.278.
`AAACAGCG` gave an E-score of 0.0555.
For `GAAGTCTC`, the E-score was -0.133.

Block 3
Target: Phosphate system positive regulatory protein PHO4, full length, GST-tagged (PHO4, Saccharomyces cerevisiae, UniProt P07270, residues 1-312)
Technique: competition protein-binding microarray
Form: double-stranded DNA, one strand shown
Medium: in vitro
Concentration: 2 µM
Setting: whole 60-bp probe, lowest competitor level
Together with: Cbf1 competitor, 0.05 µM
Direction: higher = stronger binding
Residues (chain): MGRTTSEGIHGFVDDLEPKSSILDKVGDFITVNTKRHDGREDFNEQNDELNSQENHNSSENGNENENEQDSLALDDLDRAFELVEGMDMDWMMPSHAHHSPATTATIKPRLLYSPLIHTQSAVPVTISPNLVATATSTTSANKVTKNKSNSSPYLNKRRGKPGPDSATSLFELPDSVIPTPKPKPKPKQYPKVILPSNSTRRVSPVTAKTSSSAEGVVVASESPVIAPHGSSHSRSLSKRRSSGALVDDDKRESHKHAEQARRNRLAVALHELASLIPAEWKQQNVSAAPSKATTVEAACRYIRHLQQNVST
`TCGGAAATTACATGGTGCGTGCTGTGGCTTTTTGTGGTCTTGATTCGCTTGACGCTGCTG` gave a fluorescence intensity of 10700 a.u.
`AAAGCGGTAATTTGCTCAGTGGGTGCAGATATCTATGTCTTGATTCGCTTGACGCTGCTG` has a fluorescence intensity of 3920 a.u.
The fluorescence intensity of `TGAAACATTTTTCAACGCGTGTAACAATTTGCATCTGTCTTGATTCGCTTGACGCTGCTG` is reported as 8760 a.u.
The fluorescence intensity of `CATCATGAAAAGGTCCACGTTGCTGTCGCTGGACGCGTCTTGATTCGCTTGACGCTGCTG` is reported as 12000 a.u.
The fluorescence intensity of `CATTCTGCCACTGACCACGTGGTAACGCCAACTACGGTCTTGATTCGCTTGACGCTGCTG` is reported as 18500 a.u.
For `AAATTACTAAGTTGTTACGTGGGTGACGCCGTATGAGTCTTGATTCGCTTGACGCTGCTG`, the fluorescence intensity was 5750 a.u.
`CCCATCCGGTAGGTGCATGTGTGCCTCTGCAGGACGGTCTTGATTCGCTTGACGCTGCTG` gave a fluorescence intensity of 9310 a.u.
The fluorescence intensity of `TTTCTTTTCCACTATTACGTGGTGATTCCAGTAGCGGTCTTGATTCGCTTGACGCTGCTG` is reported as 4970 a.u.
`CTTCTGTAAATTTGTCACCTGACTTGACGCGCCCCGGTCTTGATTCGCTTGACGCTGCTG` gave a fluorescence intensity of 3630 a.u.
The fluorescence intensity of `ATGGATATATATGGACACGGGACATTATAACAACTTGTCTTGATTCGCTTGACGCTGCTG` is reported as 7630 a.u.
The fluorescence intensity of `ATGGCCTTTTGGCCTCACATGACAAATACAATCTCGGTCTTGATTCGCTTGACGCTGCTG` is reported as 6320 a.u.
With `CATACCCAACCTTTTCACGTGGCATAAGATATTTGTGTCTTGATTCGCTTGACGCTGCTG` the fluorescence intensity was 15700 a.u.
For `CATACCCAACCTTGGAGGGTGGGTGAAGATATTTGTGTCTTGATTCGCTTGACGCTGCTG`, the fluorescence intensity was 3960 a.u.
For `CGGGGTTAAGTTTGGCCCGTGGGTGGCTTGCAGCAGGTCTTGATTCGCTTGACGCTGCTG`, the fluorescence intensity was 9180 a.u.
For `TGTAAATATATCCATCACGTGAAATTAGTGGCGAGGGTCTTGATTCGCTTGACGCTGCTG`, the fluorescence intensity was 12700 a.u.
`CGTCCTAGTGATTTTCACGTGCGCTCCATGAGGAAGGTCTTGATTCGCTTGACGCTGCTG` has a fluorescence intensity of 12900 a.u.
`AGGACCCTCTCTCAACATGTGGGTAATGCGAATCAAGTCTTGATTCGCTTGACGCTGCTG` gave a fluorescence intensity of 11800 a.u.

Block 4
Target: RNA binding protein fox-1 homolog 2, RRM domain, GST-SBP tag (RBFOX2, Homo sapiens, UniProt O43251-10, residues 100-194)
Technique: RNA Bind-n-Seq
Form: RNA
Medium: in vitro
Concentration: 365 nM
Setting: natural RNA segment, single round, ends assumed
Relative to: no-protein control
Direction: higher = stronger binding
Residues (chain): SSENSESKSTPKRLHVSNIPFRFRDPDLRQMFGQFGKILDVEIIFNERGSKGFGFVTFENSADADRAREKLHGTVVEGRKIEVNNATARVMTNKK
Under “RBNS enrichment (R)”, `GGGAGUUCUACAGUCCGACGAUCGGCGAGCAGCGGGCAGACCUCCAAGGACAGCCUCUAGCUGAGGUCUCAGUCACAUGAAGUGUGACACUGAACAGGUAGAAAGCACUGAAAAUCGUGUUCCAAGAGCACUUUGGAAUUCUCGGGUGCCAA` is recorded as 0.698.
For `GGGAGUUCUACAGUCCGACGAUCUCUGGGGGCAGAAAUAAAAUCCCCGCAGCCUACUGCACUUCUUGGCUCAACGGUGUGCCAGCUUCUGGGUCAUUCUAUGGGCAAAGAUGCUGCCUUAGUUCAGGUUUGUCUGGAAUUCUCGGGUGCCAA`, “RBNS enrichment (R)” read 0.397.
`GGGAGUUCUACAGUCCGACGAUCUCUCGACCAUUCCGUGUUGGCUGUGUCGCCUGACCUGCGUACCUGUGGAGGAUUCGGAACAAGUCAUGGAGAGACUGUCCGGGUCCGCUCCUUGUGAACUGUGCAGAAGGUGGAAUUCUCGGGUGCCAA` — result for “RBNS enrichment (R)”: 0.506.
For `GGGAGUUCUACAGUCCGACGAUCACCACCCCCAGUCUCAAUCCUGUGCCGACAAAGGAAGUGGACGAAUUAGUGAUGAUGGUGGGCGUGAUGGAAAGAAAGAGGUGAGUGGAGACUCAGCCUGGCUAUUCUUGUGGAAUUCUCGGGUGCCAA`, “RBNS enrichment (R)” read 0.454.
Under “RBNS enrichment (R)”, `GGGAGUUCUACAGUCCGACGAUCGGAGACAUGCCACCAACAUAGACAGGUUGGUCACCGAUGGCCAUUUUCAUAAAUAUUUCUGUGGGCCAUUUUGCUUUGCUUGUUUGUGAAAAGAAUUGUCUCUAAUUAUUUGGAAUUCUCGGGUGCCAA` is recorded as 0.548.
`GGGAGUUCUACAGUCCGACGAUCAUCAUUAAGACCACGGAGCAGCUCAUCGAGGCCGUCAACAACGGUGACUUUGAGGCCUACGGGAAAAUCUGUGACCCAGGGCUGACCUCGUUUGAGCCUGAAGCACUGGGUGGAAUUCUCGGGUGCCAA`: “RBNS enrichment (R)” 0.178.
For `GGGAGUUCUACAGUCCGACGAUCACGAACUCCAGUGUGAUCAUACGAGUCUGUCAGUCUAGUCAAAAGGCCGCCAUUUUGGCAAGACAAUCUGAAUGUGCCUUCCUGGAGCUGUCGGCUGGAAUCCCUCAUGAUGGAAUUCUCGGGUGCCAA`, “RBNS enrichment (R)” read 0.451.
For `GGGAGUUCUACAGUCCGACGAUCUUUAAAAUCCCAAUUUAUUUUCUAACUCUUUUAUUGGAUGUAUUUAGAACACAGUAUACCUAUAGUAUACCUAUGUGUUUAUUAUGUUUGUAAAUGGUAACUGACAUUUAUGGAAUUCUCGGGUGCCAA`, “RBNS enrichment (R)” read 0.808.

Block 5
Target: Max dimerization protein 1, bHLH-zipper, MAX partner unstated (MXD1, Homo sapiens, UniProt Q05195, residues 56-136)
Technique: protein-binding microarray
Form: double-stranded DNA, one strand shown
Medium: in vitro
Concentration: not given
Setting: k-mer, scored over probes, only values ≥0.25
Direction: higher = stronger binding
Residues (chain): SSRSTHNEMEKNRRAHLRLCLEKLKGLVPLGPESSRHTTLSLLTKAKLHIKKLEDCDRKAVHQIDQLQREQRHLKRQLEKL
`GCATGGCA` has an E-score of 0.398.
The E-score of `AAGGCATG` is reported as 0.35.
With `GAGCACAC` the E-score was 0.305.
The E-score of `ATATGTGG` is reported as 0.274.
For `ACACACGA`, the E-score was 0.327.
`ACATGGGT` has an E-score of 0.394.
The E-score of `AGGGCACG` is reported as 0.31.
With `CGTGTAAA` the E-score was 0.321.
The E-score of `CGCGTGAC` is reported as 0.384.
`CGCCCCAA` has an E-score of 0.287.
`CATATGTC` gave an E-score of 0.26.
`ATGTGCCC` gave an E-score of 0.344.
`GGGAATGA` gave an E-score of 0.252.
The E-score of `ACGCGTGC` is reported as 0.406.
With `CCCCTCTC` the E-score was 0.254.

Some of these lines once more (block 2):
For `CTGGTACA`, the E-score was 0.0445.
`GTCCTCAC` has an E-score of -0.169.
For `ATCCAGCA`, the E-score was 0.0575.
`ATCTCATA` gave an E-score of 0.242.
`CGACGGTA` has an E-score of -0.0765.
`CTTTTATC` gave an E-score of 0.126.
For `GCGCTATA`, the E-score was 0.206.
For `TACACCTA`, the E-score was 0.182.
With `AGAAGTAT` the E-score was 0.226.
With `CAATACCG` the E-score was -0.0804.
